Results gathered from unrelated publications.
A part holds a random share of what one study measured. Substitutions count along the parent as printed.
UniProt Q13404, sequence (whole entry, looked up): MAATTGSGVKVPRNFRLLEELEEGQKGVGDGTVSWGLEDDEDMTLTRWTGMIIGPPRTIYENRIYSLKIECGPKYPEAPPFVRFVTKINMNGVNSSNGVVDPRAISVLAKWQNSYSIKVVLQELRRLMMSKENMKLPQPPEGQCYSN
UniProt O14933, sequence (whole entry, looked up): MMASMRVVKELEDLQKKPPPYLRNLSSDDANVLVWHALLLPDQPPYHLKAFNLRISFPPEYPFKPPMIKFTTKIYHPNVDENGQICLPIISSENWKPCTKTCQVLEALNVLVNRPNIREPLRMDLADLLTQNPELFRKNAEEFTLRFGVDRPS
UniProt P60604, sequence (whole entry, looked up): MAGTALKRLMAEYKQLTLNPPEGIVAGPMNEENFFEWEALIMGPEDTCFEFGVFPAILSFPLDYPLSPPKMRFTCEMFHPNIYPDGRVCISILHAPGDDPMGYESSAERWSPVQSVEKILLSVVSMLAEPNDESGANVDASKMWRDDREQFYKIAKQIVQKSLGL
UniProt Q5VVX9, sequence (whole entry, looked up): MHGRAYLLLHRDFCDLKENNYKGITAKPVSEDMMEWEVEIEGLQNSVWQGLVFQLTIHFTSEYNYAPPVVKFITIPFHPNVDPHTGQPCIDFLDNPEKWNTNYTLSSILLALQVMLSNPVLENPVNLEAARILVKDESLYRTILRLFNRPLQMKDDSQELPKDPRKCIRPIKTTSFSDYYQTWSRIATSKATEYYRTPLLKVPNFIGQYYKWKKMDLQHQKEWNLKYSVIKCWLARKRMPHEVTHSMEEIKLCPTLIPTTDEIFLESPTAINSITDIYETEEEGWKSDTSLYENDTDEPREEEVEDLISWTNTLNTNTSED
UniProt P62256, sequence (whole entry, looked up): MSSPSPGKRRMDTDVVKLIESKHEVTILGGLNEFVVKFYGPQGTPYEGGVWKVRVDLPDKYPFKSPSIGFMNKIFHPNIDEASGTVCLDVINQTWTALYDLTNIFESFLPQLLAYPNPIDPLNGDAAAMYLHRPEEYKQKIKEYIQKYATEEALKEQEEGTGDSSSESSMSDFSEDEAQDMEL

Sample 1 — Substance: RNF167 RING domain (UniProt Q9H6Y7); technique: yeast two-hybrid; matrix: yeast; notes: mostly zero background; reference: not given; reading: higher = stronger interaction; endpoint: lacZ reporter activity
UBE2H UBC core domain (UniProt P62256): 0
UBE2V1 UBC core domain (UniProt Q13404): 0
UBE2G2 UBC core domain (UniProt P60604): 8830
UBE2L6 UBC core domain (UniProt O14933): 0
UBE2U UBC core domain (UniProt Q5VVX9): 2500

Sample 2 — technique: RNA Bind-n-Seq; molecule type: RNA; matrix: in vitro; concentration: not given; reference: input RNA pool; reading: higher = stronger binding; endpoint: bound/input enrichment
Target: RING finger protein unkempt homolog, zinc fingers 1-6, GST-SBP tag (UNK, Homo sapiens, UniProt Q9C0B0, residues 30-357)
Notes: RNA with constant flanks, human and mouse sites, ends assumed
Shared flanks, not repeated: GGGAGUUCUACAGUCCGACGAUC … CAACAGAGGAUUGAGCAUCA
Target sequence (chain): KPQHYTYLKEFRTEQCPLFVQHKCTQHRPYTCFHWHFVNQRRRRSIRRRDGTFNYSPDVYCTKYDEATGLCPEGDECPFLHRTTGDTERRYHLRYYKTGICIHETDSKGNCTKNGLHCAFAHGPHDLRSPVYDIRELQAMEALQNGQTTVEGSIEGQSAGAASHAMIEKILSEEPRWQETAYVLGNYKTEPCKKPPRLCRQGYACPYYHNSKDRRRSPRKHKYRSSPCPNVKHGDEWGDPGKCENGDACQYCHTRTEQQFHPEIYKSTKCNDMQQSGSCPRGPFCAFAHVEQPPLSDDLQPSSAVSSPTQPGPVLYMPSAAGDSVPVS
GGGGUCGGGGCGGUGCGGGUGUGCGCGCGCCGACCUCUGGCGCGUUCUAACCCGCGCGCCUGCCUUCCCGGGCUUCGUCGGCGCGCACCGAUUUCCGCAUCCGGCUCCGGACGCUUCCGG: 0.071 ratio
UCCUCCGUGAUGUAGACUGGGGAGACGUGGACUACCUCAUCGUAGACACCCCGCCUGGCACGUCUGACGAACACCUCUCAGUGGUCCAGUACCUGGCUGCGGCACACAUUGAUGGGGCAG: 4.61 ratio
CAUAUUGUAUGUAGAGAAAAAUUUUCAUUGACUCCCAUUGUGGAAUUCCCUAGCAAUUUAUUUAGACUUAAUUUUUUAAAUUCAAGCUUACUGUAUUAGUCAUUUUUAGCCCAUAAUUAA: 703 ratio
UAAUAUUUUUGUGAACUGGUGUAAAUUGUUAAUGCAUAUAAGCUUGUGUAUUUUUGUAAAUAGUUUUGUGAUUUAUUUCUUGCCCCAUAUGUAAAUAUUUAGAGUCUCAUUUCUUGCAAA: 1.77 ratio
GCUUCUAAAAUGUGAUUAUCGACCAUGGUAUGCAUGAUCGUUGUAAUUGUUGACAUUCCUUUUAGAAGUUGUGAAAUGUUACAACUUGUGCUUCUGUAGACACAAUCUUCUGUCUCCAUA: 0.51 ratio
ACCCGAUUCUGUCUUAUCUGUAACUAUGUCAGUCGAAUAAUUGAACCCCUGACCUCUAGAUGUUCAAAAUUCCGCUUCAAGCCUCUGUCAGAUAAAAUUCAACAGCAGCGAUUACUAGAC: 5.04 ratio
CCUUCAGUCUUUUCCUGUUUACCGGCAUCUCUUGAGUGCUUGGCUGAUACAAGUGAUUCCUGCUUUCUCCAGUUUGAGUCAUGUCCAAUGGAGGAGAGCUGGUUUAUCACCCCACCCCCA: 0.173 ratio
GUGCAGCUGACCGUGCAAUACCGAAUGAACAGGAAGAUUAUGUCCCUGAGCAACAAGCUCACAUACGCAGGGAAACUGGAGUGUGGGUCAGACCGAGUGGCCAACGCAGUGCUAGCCCUG: 0.0682 ratio
AUGACUCUGCUGUUCUAAGCCUCCCAUGGUUCUCUUGUAACUGUGUUGGCUUGCUUUAAAAUAGAGCAAGCCUAGGGCUGGUGAGAUGGCUCAGUGGGUAAGAGCACCCGACUGCUCUUC: 0.104 ratio
CAAAGGUUUCUUUGUCAGCCCCCAUGACAACAAAUGGGUUGCCUGAGAGCACAGACAGCAAAGAGGCAAAUUUGCAGCAAAAUGAGGAGAAAAAUCACAGUGACUCUUCGACCUCUGAAU: 0.18 ratio
UAUAAUAAUCAUGAAAUUCGUUCCGGGAAGCACAUUGGUGUCUGCAUCUCAGUUGCCAACAAUAGGCUUUUUGUGGGCUCGAUUCCUAAGAGUAAAACCAAGGAGCAGAUUCUUGAGGAA: 0.81 ratio

Sample 3 — technique: protein-binding microarray; molecule type: double-stranded DNA, one strand shown; matrix: in vitro; concentration: 2200 nM top; notes: 60-bp whole probe; with: salmon DNA 0.4 mg/ml; reference: random background probes; reading: higher = stronger binding; endpoint: fitted relative affinity; shared flanks, not repeated: GCCTAGCAC … GTCTTGATTCGCTTGACGCTGCTG
Target: Interferon regulatory factor 7, full length, phosphomimetic (IRF7, Homo sapiens, UniProt Q92985, residues 1-503, S471D/S472D/S475D/S476D/S477D/S483D/S484D/S487D)
Target sequence (chain): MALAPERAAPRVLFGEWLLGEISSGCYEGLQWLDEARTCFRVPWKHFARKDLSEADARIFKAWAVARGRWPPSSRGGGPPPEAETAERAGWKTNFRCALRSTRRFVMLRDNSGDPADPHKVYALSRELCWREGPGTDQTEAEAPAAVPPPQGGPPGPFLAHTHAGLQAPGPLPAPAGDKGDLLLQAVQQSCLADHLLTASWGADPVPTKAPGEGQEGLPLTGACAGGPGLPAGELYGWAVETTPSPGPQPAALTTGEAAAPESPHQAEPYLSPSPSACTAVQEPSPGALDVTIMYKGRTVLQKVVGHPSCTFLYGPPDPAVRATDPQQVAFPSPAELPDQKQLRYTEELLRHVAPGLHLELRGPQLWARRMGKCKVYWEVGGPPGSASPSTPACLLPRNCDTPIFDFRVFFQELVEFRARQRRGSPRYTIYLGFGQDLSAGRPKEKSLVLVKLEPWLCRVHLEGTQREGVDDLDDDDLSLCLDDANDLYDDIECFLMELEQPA
TTAGGTCTTCTTATCCTTTAGTGCTAG: 0.797 z-score
ATTTTTTTCTAATTGAAATGGTGCTAG: 1.49 z-score
TTAGGTCTCGCTCTCGGTTAGTGCTAG: 0.97 z-score
TTAGCTATCAGTCTCGATTAGTGCTAG: 0.561 z-score
TTAGGTTTGCTTTTCCTTTAGTGCTAG: 2.56 z-score
GTCGGACTGGACTATCGGGACGTGCTA: -0.537 z-score
TTAGAACTGAGACTGGATTTGTGCTAG: -0.411 z-score
AGTGAATTAGGTTTCACTTTGTGCTAG: 4.61 z-score
TTAGATTTCGGACTGGATTAGTGCTAG: 1.06 z-score
GACGATTTCACTATCGAGACGTGCTAG: 1.67 z-score
TTAGATTTCGGGTAGCGATTAGTGCTA: 1.99 z-score
GACGGTTCCGGTTTCGGGGCGTGCTAG: 4.92 z-score
ACCATTCTCGGGACTCACCTGGTGCTA: 1.49 z-score
TTAGATTTCAGTATCGATAAGTGCTAG: 0.409 z-score
GACGGTCTGGGTCTCGGGACGTGCTAG: -0.572 z-score
TTATGTTCCGGTTTCGGTTAGTGCTAG: 8.91 z-score
GACGATATCGGACTGGAGACGTGCTAG: 0.149 z-score
TTGGGACTGGGTTTCGGTTAGTGCTAG: 3.56 z-score
TTAGGTATCGGGTTTCGGTTGGTGCTA: 5.15 z-score
TCATCCTTTACTTTCTTACTGTGCTAG: 3.1 z-score
GACGATATAAGTTTCGAGACGTGCTAG: 2.98 z-score
TACTGTCTGTTTCCTCTTTCTGTGCTA: 3.15 z-score
TTAGGTATCCACTATCGGTTAGTGCTA: 0.862 z-score
TTAGTTATCAGTTTCGATTAGTGCTAG: 6.31 z-score

Sample 4 — technique: DHFR PCA, deep sequencing; matrix: yeast; with: (+)-ABA 200 µM; reference: wild-type fitted maximum; reading: higher = stronger binding; endpoint: relative binding score
Target: ABI1, truncated, D143A, DHFR fusion (Arabidopsis thaliana)
Notes: methotrexate growth selection, single substitutions
Starting sequence: PYL1, truncated, DHFR fusion (Arabidopsis thaliana); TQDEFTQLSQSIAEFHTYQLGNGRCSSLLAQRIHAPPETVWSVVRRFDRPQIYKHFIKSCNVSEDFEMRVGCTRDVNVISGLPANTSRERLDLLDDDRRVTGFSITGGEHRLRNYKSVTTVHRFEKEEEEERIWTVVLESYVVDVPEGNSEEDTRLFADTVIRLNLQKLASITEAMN; partner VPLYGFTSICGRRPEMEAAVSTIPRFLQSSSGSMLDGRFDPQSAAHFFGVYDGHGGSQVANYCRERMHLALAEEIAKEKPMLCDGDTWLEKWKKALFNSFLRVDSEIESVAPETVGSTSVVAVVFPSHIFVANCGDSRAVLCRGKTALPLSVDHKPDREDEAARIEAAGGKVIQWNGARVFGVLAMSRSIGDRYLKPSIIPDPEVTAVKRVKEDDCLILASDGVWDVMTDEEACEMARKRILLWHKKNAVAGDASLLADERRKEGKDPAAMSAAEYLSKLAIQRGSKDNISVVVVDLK
R32A: 82%
E130K: 114%
G21S: 102%
C60M: 46.6%
V143Y: 16.3%
D153Y: 12.8%
D75C: 102%
G23K: 97.8%
D95K: 55.1%
G71Y: 33.2%
L156G: 87.8%
E152S: 95%
T17L: 71.4%

Sample 5 — target: CCNB3, cyclin fold, Cln2 fusion (human); technique: yeast growth competition, sequencing; matrix: yeast; notes: weak parent motif; reference: not given; reading: higher = stronger binding; endpoint: normalised enrichment score
Starting sequence: SAMHD1 docking peptide (human); ASKSRVQLFKDDP; partner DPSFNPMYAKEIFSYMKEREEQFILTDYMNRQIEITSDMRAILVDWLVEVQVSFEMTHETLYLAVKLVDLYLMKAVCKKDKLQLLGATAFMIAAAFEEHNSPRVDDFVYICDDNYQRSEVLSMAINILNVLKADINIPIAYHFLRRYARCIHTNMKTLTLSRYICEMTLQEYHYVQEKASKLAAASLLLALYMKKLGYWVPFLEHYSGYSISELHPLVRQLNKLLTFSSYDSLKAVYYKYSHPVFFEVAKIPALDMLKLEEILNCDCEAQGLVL
D12T: 0.189
Q7I: -0.136
L8N: -0.0158
D12K: -0.17
F9H: 0.0177
L8K: -0.167
V6F: 0.0451
K10T: 0.0125
R5N: -0.163
R5E: -0.201
Q7F: 0.209
S4V: 0.86
R5M: -0.162
S2L: 0.0669
S2K: -0.321
D11I: 0.148
F9D: 0.1
F9Y: -0.0364
F9G: 0.0416
K10F: -0.419
Q7N: -0.0755
Q7W: 0.0242
D11M: 0.289
S4E: 0.0366
R5Y: -0.042

Sample 6 — technique: protein-binding microarray; molecule type: double-stranded DNA, one strand shown; matrix: in vitro; concentration: 0.8 µM; notes: whole 60-bp probe, no competitor; reading: higher = stronger binding; endpoint: fluorescence intensity; shared flanks, not repeated: … GTCTTGATTCGCTTGACGCTGCTG
Target: Centromere-binding protein 1, full length, N-terminal tag (CBF1, Saccharomyces cerevisiae, UniProt P17106, residues 1-351)
UniProt P17106, sequence (whole entry, looked up): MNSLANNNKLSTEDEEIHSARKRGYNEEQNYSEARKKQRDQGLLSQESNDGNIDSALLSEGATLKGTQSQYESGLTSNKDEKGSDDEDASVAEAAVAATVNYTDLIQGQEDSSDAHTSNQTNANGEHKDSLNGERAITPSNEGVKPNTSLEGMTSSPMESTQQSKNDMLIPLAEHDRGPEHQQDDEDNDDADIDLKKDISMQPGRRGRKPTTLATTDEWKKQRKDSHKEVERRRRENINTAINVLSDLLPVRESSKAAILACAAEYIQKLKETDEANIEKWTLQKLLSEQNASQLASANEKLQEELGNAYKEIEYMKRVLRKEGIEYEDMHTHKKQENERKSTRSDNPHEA
GAATTCTACGTACAAAACGTGTCTGCAGAACCTTAG: 568 a.u.
GAACTTCCGCTAACGCTGATGGAGTATTTTTTTTAG: 500 a.u.
GAACCATGGGTCTGTCTCCTGTTAAAGCATGTATAG: 537 a.u.
CTATGAAAAAGTAATTTCGTGACCTTCGGTATATTC: 601 a.u.
CTAAAACGTGGGCATGACGTGGAAGCGATGATCTTC: 770 a.u.
GAAAGAAACATCCATGTGATAAAACTCCGCACGTAG: 1120 a.u.
CCTAACTACTATAATCACGTGCGATAGCTTCGTACA: 9710 a.u.
GAAGAGTTCTCGGGACACGGGAAAGACAATGGATAG: 590 a.u.
CCTAACTACTATAGGCACGTGCGATAGCTTCGTACA: 9970 a.u.
CTATACTCAAGAAGTCACGCTGTCATTTGATGGTTC: 1220 a.u.
GAATACTATTTAAGCACGTGCATAAATTGGGTGTAG: 16800 a.u.
GAAATAGAAACACAACACGTCATGGTTGTTCTTTAG: 527 a.u.
CTAAGACAACTTTACATCAGCCTTCATATTTTTTTC: 522 a.u.
GAAGCACGTGATATACACCTGACCTATAATATTTAG: 18600 a.u.
TGTACGAAGCTATCAAATGTGTCTATAGTAGTTAGG: 525 a.u.
CTATTTTTTAGAAATCGCGTGGCTTGGTAACGCTTC: 592 a.u.
CTACTCCATTTCTTAACGGTGACGAAGGATCACTTC: 545 a.u.
CTAATATATAAGATCCATGTGATAATGAATGCTTTC: 1320 a.u.
GAATATGTTCCGTGTAAGGTGATATTACTCAAATAG: 552 a.u.
CTACTCTATAGGCATCACCATTGAAAAGTATGTTTC: 563 a.u.
CTAGAGCACTACCATGACGTCATTAATGTAAAATTC: 504 a.u.
GAACTAGCTCGAATACTGGTGGTGCAATTGAACTAG: 537 a.u.
TGTACGAAGCTATGTGACGTCATTATAGTAGTTAGG: 563 a.u.
CTACACATTAAATATATCGTGACTACCCAATCTTTC: 1320 a.u.
CTAAGTGTAAGCGGTCAGGTGTAAGTAGTAGGCTTC: 1130 a.u.

Some of these lines once more (sample 5):
R5N: -0.163
D11I: 0.148
F9Y: -0.0364
V6F: 0.0451
S4V: 0.86
F9G: 0.0416
